Measurements pooled from the literature.
Protocols differ between the studies behind these lines. Numbers after ± are the reported error.
Target: Broad substrate specificity ATP-binding cassette transporter ABCG2 (ABCG2, Homo sapiens, UniProt Q9UNQ0)
Time: 30 min
One construct used (Q9UNQ0 1-655): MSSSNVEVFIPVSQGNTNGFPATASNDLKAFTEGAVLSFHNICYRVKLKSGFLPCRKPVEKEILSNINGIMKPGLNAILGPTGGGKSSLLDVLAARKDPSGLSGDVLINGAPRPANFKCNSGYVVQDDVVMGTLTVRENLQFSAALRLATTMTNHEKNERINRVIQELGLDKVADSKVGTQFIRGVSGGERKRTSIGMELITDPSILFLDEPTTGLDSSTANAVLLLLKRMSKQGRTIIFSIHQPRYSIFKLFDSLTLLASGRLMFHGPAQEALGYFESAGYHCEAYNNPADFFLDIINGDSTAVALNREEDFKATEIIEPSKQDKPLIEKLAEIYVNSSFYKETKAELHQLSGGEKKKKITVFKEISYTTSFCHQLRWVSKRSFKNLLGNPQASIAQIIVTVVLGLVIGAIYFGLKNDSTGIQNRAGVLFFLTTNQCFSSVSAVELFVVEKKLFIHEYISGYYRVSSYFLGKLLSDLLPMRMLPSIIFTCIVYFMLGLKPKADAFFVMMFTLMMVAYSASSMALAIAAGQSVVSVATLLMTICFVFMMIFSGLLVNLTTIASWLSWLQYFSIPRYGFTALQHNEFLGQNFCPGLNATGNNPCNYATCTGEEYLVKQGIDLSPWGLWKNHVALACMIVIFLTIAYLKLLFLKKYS

| Structure (SMILES) | test | system | conditions | how to read | inhibition [%] |
| --- | --- | --- | --- | --- | --- |
| COc1cc(O)c(C(=O)/C=C/c2ccc(F)cc2)c(OC)c1 | mitoxantrone efflux, flow cytometry | HEK293 transfected with ABCG2 | 5 µM, added: mitoxantrone | baseline: 5 µM GF120918 as 100% | 60.9 ± 6.7 |
| COc1cc(C2=NOC(CN3CCC(N4CCCC4=O)c4ccccc43)C2)cc(OC)c1OC (stereo not shown) | mitoxantrone efflux, flow cytometry | HEK293 overexpressing ABCG2 | 10 µM, added: mitoxantrone 10 µM |  | > 50 |
| CC(=O)OCCc1ccc(O)c(-c2cc(CCOC(C)=O)ccc2O)c1 | mitoxantrone transport, inhibitor |  | 10 µM, added: mitoxantrone 5 µM | baseline: Ko143 0.5 µM | 10.1 ± 2.7 |
| O=C1CCCc2c1c1c(n2Cc2ccccc2)-c2ccccc2C1=O | mitoxantrone efflux, inhibitor, flow cytometry | HEK293 transfected with ABCG2 | 10 µM, added: mitoxantrone 5 µM | baseline: Ko143 1 µM | 100 ± 14 |
| O=C1CCCN1C1CCN(CC2CC(c3ccccc3)=NO2)c2ccccc21 (stereo not shown) | mitoxantrone efflux, flow cytometry | HEK293 overexpressing ABCG2 | 10 µM, added: mitoxantrone 10 µM |  | > 50 |
| CC(=O)OCCc1cc(O)c(O)c(-c2cc(CCOC(C)=O)cc(O)c2O)c1 | mitoxantrone transport, inhibitor |  | 10 µM, added: mitoxantrone 5 µM | baseline: Ko143 0.5 µM | 0.1 ± 1.8 |
| O=C(/C=C/c1ccc(Br)cc1)c1ccc2ccccc2c1 | mitoxantrone efflux, flow cytometry | HEK293 transfected with ABCG2 | 5 µM, added: mitoxantrone | baseline: 5 µM GF120918 as 100% | 6.7 ± 1.3 |
| COc1cc(C2=NOC(CN3CCC(N4CCCC4=O)c4cc(Cl)ccc43)C2)cc(OC)c1OC (stereo not shown) | mitoxantrone efflux, flow cytometry | HEK293 overexpressing ABCG2 | 10 µM, added: mitoxantrone 10 µM |  | > 50 |
| CC(C)n1c2c(=O)ccc(=O)c2c2c(=O)c3ccccc3c21 | mitoxantrone efflux, inhibitor, flow cytometry | HEK293 transfected with ABCG2 | 10 µM, added: mitoxantrone 5 µM | baseline: Ko143 1 µM | 36 |
| COc1ccc(/C=C/C(=O)c2ccc3c(c2)OCO3)cc1OC | mitoxantrone efflux, flow cytometry | HEK293 transfected with ABCG2 | 5 µM, added: mitoxantrone | baseline: 5 µM GF120918 as 100% | 73.1 ± 4.5 |

A few entries again:
| Structure (SMILES) | test | system | conditions | how to read | inhibition [%] |
| --- | --- | --- | --- | --- | --- |
| COc1ccc(/C=C/C(=O)c2ccc3c(c2)OCO3)cc1OC | mitoxantrone efflux, flow cytometry | HEK293 transfected with ABCG2 | 5 µM, added: mitoxantrone | baseline: 5 µM GF120918 as 100% | 73.1 ± 4.5 |
| CC(=O)OCCc1ccc(O)c(-c2cc(CCOC(C)=O)ccc2O)c1 | mitoxantrone transport, inhibitor |  | 10 µM, added: mitoxantrone 5 µM | baseline: Ko143 0.5 µM | 10.1 ± 2.7 |
